Results gathered from unrelated publications.
A part holds a random share of what one study measured. Substitutions count along the parent as printed.
UniProt P49759, sequence (whole entry, looked up): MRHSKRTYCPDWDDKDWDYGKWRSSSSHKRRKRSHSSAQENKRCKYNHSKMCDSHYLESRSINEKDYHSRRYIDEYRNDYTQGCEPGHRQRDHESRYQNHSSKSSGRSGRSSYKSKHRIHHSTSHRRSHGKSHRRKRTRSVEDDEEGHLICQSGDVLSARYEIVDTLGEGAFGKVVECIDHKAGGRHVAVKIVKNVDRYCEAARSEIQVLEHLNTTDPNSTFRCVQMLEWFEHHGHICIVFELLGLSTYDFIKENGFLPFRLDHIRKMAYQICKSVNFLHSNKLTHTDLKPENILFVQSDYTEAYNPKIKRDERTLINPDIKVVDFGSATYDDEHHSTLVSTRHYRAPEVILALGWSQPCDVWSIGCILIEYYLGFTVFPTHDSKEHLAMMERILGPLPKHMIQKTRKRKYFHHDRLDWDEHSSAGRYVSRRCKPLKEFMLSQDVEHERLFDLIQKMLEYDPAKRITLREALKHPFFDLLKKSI
UniProt P29317, sequence (whole entry, looked up): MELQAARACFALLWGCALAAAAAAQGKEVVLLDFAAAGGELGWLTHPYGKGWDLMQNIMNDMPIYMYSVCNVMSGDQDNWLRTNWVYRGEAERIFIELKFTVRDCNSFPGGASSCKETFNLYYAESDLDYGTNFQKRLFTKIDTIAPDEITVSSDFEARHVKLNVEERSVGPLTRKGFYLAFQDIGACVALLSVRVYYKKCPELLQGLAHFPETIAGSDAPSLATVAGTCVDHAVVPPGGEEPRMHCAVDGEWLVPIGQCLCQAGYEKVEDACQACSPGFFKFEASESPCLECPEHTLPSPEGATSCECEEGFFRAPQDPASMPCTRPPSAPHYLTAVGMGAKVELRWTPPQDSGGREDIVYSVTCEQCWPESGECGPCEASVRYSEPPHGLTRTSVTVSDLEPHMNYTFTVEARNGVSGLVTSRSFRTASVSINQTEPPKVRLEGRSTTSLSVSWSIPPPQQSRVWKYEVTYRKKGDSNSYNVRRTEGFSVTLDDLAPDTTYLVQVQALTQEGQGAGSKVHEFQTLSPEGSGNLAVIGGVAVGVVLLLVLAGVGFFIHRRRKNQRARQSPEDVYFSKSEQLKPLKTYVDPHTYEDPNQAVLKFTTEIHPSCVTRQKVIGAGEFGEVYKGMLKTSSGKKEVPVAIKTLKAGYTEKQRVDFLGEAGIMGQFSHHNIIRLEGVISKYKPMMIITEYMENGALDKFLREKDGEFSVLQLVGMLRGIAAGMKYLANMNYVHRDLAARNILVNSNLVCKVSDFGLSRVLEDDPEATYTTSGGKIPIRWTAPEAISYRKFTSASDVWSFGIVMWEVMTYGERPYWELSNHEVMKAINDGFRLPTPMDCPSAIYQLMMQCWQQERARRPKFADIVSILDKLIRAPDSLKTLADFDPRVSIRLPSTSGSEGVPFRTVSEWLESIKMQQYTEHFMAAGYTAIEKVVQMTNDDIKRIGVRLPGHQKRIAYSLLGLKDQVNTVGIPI
UniProt Q13043, sequence (whole entry, looked up): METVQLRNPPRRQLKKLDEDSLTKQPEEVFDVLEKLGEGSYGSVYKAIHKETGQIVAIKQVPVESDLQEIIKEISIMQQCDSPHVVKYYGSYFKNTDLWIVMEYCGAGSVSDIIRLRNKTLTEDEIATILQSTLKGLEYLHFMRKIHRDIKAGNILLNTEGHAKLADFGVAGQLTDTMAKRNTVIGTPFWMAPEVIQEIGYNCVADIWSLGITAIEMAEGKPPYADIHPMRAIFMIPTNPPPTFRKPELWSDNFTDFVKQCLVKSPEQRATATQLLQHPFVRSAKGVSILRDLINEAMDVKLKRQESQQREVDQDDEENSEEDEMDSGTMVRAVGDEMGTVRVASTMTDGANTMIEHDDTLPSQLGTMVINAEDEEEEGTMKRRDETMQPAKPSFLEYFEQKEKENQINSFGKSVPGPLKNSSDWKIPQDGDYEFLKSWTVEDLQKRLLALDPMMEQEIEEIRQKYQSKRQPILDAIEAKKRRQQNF
UniProt Q96RR4, sequence (whole entry, looked up): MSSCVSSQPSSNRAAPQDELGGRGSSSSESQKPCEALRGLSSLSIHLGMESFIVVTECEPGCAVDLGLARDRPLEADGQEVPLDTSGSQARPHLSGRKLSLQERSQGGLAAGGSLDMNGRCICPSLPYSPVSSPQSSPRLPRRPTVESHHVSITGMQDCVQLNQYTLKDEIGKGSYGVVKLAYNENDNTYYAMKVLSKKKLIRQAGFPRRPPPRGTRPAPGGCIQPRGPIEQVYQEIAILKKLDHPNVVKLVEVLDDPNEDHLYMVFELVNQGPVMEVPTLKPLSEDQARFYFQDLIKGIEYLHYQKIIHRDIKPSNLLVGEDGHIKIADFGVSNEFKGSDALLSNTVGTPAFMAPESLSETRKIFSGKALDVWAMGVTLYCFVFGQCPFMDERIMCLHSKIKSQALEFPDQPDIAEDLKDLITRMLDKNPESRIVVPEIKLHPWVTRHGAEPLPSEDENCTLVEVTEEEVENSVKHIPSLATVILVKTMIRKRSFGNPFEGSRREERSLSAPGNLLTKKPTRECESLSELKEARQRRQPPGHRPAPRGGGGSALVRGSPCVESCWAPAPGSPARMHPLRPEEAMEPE
UniProt O60674, sequence (whole entry, looked up): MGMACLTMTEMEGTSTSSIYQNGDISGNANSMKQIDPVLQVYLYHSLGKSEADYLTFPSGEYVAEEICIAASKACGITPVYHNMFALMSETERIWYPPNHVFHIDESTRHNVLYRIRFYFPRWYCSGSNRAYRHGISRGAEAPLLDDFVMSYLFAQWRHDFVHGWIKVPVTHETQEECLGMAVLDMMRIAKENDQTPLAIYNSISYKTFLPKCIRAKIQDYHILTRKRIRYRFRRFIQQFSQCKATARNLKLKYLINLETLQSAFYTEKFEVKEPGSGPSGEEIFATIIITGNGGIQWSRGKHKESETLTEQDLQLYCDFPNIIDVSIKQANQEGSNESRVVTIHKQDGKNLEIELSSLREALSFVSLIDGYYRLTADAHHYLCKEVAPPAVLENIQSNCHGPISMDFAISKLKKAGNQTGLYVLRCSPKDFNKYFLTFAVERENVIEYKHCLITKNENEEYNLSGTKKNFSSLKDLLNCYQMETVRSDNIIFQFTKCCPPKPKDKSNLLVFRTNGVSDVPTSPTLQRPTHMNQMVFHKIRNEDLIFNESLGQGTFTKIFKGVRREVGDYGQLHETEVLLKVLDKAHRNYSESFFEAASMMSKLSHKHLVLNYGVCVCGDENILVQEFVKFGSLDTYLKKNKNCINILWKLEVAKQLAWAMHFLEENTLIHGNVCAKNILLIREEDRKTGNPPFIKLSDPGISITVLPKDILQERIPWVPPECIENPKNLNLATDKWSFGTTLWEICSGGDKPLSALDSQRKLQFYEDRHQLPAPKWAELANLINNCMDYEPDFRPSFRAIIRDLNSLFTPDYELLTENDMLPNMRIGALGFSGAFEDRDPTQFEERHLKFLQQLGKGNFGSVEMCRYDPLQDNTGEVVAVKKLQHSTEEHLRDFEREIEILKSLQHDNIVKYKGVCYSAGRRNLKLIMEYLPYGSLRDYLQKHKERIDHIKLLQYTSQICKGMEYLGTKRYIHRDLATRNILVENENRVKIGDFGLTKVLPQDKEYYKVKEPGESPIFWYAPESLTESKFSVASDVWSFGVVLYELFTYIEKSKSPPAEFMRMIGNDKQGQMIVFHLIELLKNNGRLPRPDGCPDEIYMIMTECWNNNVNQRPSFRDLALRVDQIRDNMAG
UniProt Q99558, sequence (whole entry, looked up): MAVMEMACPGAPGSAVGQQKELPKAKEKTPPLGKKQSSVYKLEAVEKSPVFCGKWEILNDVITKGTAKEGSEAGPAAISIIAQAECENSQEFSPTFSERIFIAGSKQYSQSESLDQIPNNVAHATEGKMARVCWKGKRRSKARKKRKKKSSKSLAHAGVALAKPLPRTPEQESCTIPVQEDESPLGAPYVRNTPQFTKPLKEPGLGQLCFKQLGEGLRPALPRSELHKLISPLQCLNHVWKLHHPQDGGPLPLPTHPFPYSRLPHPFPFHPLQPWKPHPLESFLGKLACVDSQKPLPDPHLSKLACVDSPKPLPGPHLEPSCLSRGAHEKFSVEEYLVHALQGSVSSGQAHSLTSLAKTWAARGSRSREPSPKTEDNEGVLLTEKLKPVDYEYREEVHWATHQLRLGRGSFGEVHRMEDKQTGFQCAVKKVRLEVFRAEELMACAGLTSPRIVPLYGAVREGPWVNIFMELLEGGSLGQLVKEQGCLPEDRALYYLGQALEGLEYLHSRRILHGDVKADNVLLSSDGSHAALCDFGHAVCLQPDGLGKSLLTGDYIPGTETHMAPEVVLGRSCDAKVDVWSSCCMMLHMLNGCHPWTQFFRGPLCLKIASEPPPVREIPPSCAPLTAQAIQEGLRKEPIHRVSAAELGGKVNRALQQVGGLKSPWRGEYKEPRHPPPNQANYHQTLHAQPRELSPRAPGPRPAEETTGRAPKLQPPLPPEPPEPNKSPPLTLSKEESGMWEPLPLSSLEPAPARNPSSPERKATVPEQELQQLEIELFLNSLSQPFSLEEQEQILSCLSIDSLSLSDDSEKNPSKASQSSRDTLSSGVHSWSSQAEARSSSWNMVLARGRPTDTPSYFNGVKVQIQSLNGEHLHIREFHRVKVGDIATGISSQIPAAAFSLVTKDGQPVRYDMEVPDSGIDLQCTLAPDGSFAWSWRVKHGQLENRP
UniProt P11802, sequence (whole entry, looked up): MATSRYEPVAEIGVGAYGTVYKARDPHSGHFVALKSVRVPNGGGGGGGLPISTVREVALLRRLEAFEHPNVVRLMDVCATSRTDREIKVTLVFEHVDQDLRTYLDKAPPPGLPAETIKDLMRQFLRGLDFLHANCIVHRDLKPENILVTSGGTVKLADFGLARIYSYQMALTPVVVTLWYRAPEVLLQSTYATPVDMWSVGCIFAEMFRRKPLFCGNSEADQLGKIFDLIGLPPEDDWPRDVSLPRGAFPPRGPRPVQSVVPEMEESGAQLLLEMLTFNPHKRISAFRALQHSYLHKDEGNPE

Block 1
SMILES: COc1ccc2c(c1)O[C@H](c1ccc(OC)c(OC)c1)C[C@@H]2NC(=O)C1(c2ccc3c(c2)OC(F)(F)O3)CC1
Read-out: cell-free assay
Method: competition with immobilised ligand
Tested at: 1 µM
| target | remaining binding [%] |
| --- | --- |
| ULK1 (Homo sapiens, UniProt O75385) | 88 |
| MAP3K14 (Homo sapiens, UniProt Q99558) | 100 |
| STK4 (Homo sapiens, UniProt Q13043) | 95 |
| EPHA2 (Homo sapiens, UniProt P29317) | 94 |
| NEK7 (Homo sapiens, UniProt Q8TDX7) | 100 |
| CLK1 (Homo sapiens, UniProt P49759) | 100 |
| MAP4K4 (Homo sapiens, UniProt O95819) | 100 |
| Tyrosine-protein kinase JAK2, JH1 (JAK2, Homo sapiens, UniProt O60674) | 98 |
| EPHB6 (Homo sapiens, UniProt O15197) | 85 |

Block 2
SMILES: C#Cc1cccc(Nc2ncnc3cc(OCCOC)c(OCCOC)cc23)c1
Read-out: enzyme activity
Mode: inhibitor
Tested at: 0.5 µM
Reference: control
| target | remaining activity [%] |
| --- | --- |
| IKBKE (Homo sapiens, UniProt Q14164) | 87.6 |
| DAPK1 (Homo sapiens, UniProt P53355) | 103 |
| TGFBR2 (Homo sapiens, UniProt P37173) | 91.8 |
| Cyclin-dependent kinase 4, with cyclin D1 (CDK4, Homo sapiens, UniProt P11802) | 96 |
| CAMKK2 (Homo sapiens, UniProt Q96RR4) | 97.1 |
| PRKCA (Homo sapiens, UniProt P17252) | 88.6 |
| Cyclin-dependent kinase 5, with p25 (CDK5, Homo sapiens, UniProt Q00535) | 90.5 |

Block 3
Target: CCNA1, cyclin fold, Cln2 fusion (human)
Method: yeast growth competition, sequencing
Matrix: yeast
Notes: weak parent motif
Reference: not given
Reading: higher = stronger binding
Starting sequence: PKN2 docking peptide (human); VSAVQKLDFSDTM
| Variant | normalised enrichment score |
| --- | --- |
| VSAVQKLDFLDTM [S10L] | 0.0335 |
| VSAVQKLDFSLTM [D11L] | 0.25 |
| VSAVQKLDWSDTM [F9W] | 0.13 |
| VSAVQLLDFSDTM [K6L] | 0.324 |
| VSAVQKLDFSDTY [M13Y] | 0.14 |
| VSAVQKLDFSDEM [T12E] | 0.444 |
| VSAVQKLDFSYTM [D11Y] | -0.0149 |
| VDAVQKLDFSDTM [S2D] | -0.131 |

Block 4
Target: Sal-like protein 4, full length isoform B (SALL4, Homo sapiens, UniProt Q9UJQ4-2, residues 1-616)
Method: universal PBM
Form: double-stranded DNA, one strand shown
Matrix: in vitro
Tested at: not given
Notes: 8-mer, flanks averaged, mean of replicates
Reading: higher = stronger binding
| Oligonucleotide | E-score |
| --- | --- |
| CGCTCATA | 0.0573 |
| AACACGAG | 0.0571 |
| CGGGATCA | -0.178 |
| TCATCCAA | 0.139 |
| CAGAGTGC | -0.18 |
| CTAAGGTA | -0.00472 |
| GTCCGAAA | 0.00425 |
| ACAAGGCA | -0.0285 |

For quick reference, copied from above (block 1):
| target | remaining binding [%] |
| --- | --- |
| MAP3K14 (Homo sapiens, UniProt Q99558) | 100 |
| EPHA2 (Homo sapiens, UniProt P29317) | 94 |
